Experimental data collected from several papers.
Lines come from different studies, so protocols differ. Values joined by “and” are separate records of one study, mostly repeats; a detail may differ. Numbers after ± are the reported error.
OPRL1: Nociceptin receptor (OPRL1, Homo sapiens, UniProt P41146)
Oprm1: Mu-type opioid receptor (Oprm1, Rattus norvegicus, UniProt P33535)
Oprk1: Kappa-type opioid receptor (Oprk1, Mus musculus, UniProt P33534)
Muscarinic acetylcholine receptor: Muscarinic acetylcholine receptor (Xenopus laevis, UniProt A0A8J0U760)
OPRK1: Kappa-type opioid receptor (OPRK1, Homo sapiens, UniProt P41145)
ACHE: Acetylcholinesterase (ACHE, Homo sapiens, UniProt P22303)
Neuronal acetylcholine receptor; alpha3/beta2: Neuronal acetylcholine receptor; alpha3/beta2 (Rattus norvegicus, UniProt P04757+P12390)
inhA: Enoyl-[acyl-carrier-protein] reductase [NADH] (inhA, Mycobacterium tuberculosis, UniProt P9WGR1)

Sequences of proteins named here, by UniProt entry; tags and fusion partners are left off. Residues count along the entry.
UniProt P41146, whole entry: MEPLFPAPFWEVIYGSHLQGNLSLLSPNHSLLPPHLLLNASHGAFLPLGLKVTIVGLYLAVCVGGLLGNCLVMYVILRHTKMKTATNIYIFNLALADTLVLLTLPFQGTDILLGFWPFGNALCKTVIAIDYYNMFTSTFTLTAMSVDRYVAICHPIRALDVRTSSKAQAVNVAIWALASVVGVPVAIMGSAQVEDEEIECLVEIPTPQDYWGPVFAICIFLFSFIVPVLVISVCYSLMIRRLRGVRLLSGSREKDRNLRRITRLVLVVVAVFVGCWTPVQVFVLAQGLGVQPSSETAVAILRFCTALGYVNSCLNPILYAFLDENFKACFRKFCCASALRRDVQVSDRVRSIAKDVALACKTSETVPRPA
UniProt P33535, whole entry: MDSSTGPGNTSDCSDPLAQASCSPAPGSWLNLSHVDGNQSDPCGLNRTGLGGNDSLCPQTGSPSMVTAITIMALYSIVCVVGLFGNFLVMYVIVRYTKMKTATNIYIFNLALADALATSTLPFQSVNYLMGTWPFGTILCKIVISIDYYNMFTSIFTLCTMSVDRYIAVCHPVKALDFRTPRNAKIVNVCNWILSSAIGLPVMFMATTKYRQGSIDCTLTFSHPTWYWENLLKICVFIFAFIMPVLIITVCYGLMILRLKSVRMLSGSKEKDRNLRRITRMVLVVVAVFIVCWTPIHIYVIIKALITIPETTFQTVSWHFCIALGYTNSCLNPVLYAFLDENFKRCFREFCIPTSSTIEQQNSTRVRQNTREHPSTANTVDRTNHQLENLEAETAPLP
UniProt P33534, whole entry: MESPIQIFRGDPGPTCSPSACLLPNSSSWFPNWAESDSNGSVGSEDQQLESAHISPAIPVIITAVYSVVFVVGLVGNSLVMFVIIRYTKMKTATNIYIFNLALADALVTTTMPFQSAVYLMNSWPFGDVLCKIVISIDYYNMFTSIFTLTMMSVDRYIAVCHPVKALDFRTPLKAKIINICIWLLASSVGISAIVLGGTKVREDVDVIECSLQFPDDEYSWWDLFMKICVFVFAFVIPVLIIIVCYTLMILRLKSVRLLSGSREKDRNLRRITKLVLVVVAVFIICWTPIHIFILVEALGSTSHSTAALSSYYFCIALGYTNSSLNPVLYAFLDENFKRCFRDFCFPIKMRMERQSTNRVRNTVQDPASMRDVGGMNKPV
UniProt A0A8J0U760, 1-470: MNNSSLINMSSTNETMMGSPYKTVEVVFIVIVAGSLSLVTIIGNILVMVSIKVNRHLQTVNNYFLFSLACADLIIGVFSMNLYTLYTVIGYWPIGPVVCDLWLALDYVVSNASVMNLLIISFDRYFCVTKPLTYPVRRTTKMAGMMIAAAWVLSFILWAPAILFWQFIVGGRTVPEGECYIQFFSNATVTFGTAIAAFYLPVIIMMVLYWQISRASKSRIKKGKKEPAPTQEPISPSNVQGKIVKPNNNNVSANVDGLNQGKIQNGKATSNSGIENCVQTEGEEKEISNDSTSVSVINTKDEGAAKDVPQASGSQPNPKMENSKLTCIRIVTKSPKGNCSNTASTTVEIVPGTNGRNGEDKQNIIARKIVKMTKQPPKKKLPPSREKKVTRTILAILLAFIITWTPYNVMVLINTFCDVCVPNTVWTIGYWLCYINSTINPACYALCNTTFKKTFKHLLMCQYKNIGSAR
UniProt P41145, whole entry: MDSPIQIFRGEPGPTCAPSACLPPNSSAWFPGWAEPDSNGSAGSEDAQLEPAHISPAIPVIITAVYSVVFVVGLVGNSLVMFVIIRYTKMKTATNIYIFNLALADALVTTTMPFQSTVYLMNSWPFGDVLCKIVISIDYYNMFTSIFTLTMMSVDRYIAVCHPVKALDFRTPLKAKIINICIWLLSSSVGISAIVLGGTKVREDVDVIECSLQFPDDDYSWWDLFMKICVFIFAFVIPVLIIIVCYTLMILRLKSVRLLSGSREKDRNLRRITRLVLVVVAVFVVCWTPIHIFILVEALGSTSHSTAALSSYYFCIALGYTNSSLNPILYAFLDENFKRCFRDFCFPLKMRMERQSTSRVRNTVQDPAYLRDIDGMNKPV
UniProt P22303, whole entry, looked up: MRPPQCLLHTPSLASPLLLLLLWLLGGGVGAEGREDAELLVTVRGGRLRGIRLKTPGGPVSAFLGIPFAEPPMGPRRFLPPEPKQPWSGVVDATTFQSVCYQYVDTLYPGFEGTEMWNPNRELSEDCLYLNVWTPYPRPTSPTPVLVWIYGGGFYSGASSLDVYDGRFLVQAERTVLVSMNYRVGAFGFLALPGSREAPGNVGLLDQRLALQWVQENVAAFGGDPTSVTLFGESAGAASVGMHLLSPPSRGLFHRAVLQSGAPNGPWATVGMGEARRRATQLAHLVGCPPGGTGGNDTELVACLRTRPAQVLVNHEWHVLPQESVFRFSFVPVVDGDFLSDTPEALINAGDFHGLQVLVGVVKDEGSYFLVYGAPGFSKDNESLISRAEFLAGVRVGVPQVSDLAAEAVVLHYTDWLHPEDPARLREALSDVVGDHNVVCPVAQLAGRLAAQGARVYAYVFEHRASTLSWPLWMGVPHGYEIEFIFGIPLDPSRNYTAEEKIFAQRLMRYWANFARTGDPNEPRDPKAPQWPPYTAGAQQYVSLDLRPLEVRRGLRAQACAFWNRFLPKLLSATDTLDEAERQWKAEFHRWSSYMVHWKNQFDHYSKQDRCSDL
UniProt P22303, 32-614 limits assumed: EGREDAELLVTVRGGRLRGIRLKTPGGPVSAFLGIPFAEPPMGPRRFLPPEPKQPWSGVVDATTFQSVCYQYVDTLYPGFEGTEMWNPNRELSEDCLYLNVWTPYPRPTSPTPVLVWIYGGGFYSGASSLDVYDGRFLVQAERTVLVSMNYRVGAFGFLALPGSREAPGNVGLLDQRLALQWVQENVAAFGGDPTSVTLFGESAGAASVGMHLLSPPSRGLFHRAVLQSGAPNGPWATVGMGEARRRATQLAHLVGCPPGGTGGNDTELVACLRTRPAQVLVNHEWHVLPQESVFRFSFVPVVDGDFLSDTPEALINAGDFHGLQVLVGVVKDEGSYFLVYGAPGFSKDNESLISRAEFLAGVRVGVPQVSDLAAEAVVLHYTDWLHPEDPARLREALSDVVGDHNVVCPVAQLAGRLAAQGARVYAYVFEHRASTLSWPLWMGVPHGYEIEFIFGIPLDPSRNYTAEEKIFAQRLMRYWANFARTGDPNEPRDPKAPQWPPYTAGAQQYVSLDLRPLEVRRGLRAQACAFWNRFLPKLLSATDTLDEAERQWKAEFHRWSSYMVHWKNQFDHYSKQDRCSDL
UniProt P12390, 25-500 limits assumed: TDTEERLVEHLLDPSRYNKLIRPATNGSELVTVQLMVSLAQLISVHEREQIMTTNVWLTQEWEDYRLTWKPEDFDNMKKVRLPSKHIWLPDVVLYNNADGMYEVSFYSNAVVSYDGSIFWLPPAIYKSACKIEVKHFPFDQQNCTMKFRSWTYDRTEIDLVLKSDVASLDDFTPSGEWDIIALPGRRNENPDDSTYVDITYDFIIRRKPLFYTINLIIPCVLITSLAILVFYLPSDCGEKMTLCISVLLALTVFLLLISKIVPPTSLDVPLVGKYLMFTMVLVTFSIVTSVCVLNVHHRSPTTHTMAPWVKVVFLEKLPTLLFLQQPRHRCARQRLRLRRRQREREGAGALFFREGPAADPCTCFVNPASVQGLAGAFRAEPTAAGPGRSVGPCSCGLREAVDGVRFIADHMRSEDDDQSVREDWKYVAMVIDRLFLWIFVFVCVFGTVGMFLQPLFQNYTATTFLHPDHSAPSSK
UniProt P35869, whole entry, looked up: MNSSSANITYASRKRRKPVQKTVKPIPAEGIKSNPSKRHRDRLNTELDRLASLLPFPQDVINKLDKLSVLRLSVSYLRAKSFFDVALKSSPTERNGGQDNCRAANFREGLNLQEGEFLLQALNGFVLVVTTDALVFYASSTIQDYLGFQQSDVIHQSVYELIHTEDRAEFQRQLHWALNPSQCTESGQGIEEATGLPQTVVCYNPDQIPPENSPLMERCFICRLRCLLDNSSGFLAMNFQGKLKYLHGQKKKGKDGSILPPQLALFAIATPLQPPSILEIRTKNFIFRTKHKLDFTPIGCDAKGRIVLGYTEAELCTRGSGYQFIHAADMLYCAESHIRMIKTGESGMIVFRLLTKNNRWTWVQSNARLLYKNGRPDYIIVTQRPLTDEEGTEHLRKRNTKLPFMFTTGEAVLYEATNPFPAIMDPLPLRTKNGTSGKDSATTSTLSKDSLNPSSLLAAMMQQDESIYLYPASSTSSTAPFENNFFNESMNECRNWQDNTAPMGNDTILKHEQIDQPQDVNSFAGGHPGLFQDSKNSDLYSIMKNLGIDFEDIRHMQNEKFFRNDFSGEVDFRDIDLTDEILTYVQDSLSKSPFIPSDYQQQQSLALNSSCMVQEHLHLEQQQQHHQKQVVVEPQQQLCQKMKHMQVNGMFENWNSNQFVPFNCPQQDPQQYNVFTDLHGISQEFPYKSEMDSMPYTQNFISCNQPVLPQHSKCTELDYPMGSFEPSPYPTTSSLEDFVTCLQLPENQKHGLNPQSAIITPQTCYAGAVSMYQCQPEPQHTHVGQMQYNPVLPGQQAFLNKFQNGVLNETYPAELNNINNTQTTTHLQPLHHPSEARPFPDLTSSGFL
UniProt P35462, whole entry: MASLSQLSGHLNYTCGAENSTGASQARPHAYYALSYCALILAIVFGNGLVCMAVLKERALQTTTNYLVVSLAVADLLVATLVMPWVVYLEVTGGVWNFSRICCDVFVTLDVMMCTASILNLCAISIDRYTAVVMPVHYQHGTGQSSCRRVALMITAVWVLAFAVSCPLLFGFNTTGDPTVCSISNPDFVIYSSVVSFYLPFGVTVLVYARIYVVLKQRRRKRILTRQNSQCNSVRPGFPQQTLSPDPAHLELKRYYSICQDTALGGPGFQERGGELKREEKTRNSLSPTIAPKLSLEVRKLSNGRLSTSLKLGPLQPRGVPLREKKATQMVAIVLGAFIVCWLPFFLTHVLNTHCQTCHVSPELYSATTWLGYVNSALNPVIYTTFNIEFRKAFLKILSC
UniProt A0A4X1VEU5, 29-602 limits assumed: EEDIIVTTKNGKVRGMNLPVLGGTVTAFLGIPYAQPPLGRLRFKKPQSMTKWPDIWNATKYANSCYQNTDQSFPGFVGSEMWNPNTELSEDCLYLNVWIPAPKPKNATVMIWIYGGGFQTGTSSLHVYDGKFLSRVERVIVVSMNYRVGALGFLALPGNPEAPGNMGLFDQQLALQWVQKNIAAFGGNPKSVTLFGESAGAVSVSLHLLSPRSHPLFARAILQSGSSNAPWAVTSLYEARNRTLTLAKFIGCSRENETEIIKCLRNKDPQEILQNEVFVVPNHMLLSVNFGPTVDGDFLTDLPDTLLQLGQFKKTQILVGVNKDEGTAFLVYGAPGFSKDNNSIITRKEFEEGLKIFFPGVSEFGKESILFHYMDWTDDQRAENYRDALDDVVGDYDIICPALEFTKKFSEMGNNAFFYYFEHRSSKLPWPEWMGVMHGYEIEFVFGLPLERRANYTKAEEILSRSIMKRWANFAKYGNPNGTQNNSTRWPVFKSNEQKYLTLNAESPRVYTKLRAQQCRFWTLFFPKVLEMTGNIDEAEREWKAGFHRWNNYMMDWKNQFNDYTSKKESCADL
UniProt P54764, whole entry, looked up: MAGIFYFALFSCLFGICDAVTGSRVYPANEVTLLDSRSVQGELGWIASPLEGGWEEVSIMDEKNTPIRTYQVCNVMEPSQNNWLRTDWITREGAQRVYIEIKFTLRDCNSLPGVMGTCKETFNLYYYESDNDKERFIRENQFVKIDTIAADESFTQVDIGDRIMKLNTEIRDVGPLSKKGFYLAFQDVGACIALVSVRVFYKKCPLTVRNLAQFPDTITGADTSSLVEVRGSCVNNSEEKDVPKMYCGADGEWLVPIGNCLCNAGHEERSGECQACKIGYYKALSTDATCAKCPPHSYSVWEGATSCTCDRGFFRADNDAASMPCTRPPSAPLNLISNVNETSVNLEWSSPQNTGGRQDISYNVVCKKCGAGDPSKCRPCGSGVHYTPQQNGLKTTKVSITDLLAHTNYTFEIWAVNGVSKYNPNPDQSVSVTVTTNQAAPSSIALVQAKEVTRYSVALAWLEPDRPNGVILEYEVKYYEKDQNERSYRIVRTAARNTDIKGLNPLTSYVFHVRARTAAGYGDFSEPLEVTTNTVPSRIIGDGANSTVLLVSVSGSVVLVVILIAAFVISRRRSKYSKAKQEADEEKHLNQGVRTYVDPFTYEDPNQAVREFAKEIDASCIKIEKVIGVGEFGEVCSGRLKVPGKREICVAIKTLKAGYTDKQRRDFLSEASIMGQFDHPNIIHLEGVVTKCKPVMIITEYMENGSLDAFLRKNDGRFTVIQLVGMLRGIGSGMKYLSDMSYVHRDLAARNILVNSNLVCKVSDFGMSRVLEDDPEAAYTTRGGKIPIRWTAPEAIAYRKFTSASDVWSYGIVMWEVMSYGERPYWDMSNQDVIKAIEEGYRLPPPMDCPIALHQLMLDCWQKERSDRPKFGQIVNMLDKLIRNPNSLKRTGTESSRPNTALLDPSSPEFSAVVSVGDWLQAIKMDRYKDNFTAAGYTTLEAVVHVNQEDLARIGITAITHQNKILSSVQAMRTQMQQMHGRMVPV

nociceptin — time to maximum (OPRL1; receptor internalization; 10 µM): 60 min
CO[C@]12CC[C@@]3(C[C@@H]1[C@](C)(O)c1ccc(Cl)s1)[C@H]1Cc4ccc(O)c5c4[C@@]3(CCN1CC1CC1)[C@H]2O5 — stimulation (Oprm1; G protein activation, agonist; 10 µM; reference: DAMGO): 45 ± 3%
CO[C@]12CC[C@@]3(C[C@@H]1[C@](C)(O)CC(C)(C)c1ccccc1)[C@H]1Cc4ccc(O)c5c4[C@@]3(CCN1CC1CC1)[C@H]2O5 — selectivity ratio (OPRL1; radioligand binding; reference: Ki MOP over Ki OPRL1): 10 fold
C[S+](CC[C@H](N)C(=O)O)C[C@H]1O[C@@H](n2cnc3c(N)ncnc32)[C@H](O)[C@@H]1O (some centres unmarked) — Km (Adenosylmethionine-8-amino-7-oxononanoate aminotransferase (Mycobacterium tuberculosis, UniProt P9WQ81); first half-reaction, substrate, PMP formation by absorbance; pH 8.5, room temperature, together with: 100 µM PLP): 450 ± 200 µM
CN(C(=O)Cc1cccc2occc12)[C@H]1CC[C@@]2(CCCO2)C[C@@H]1N1CCCC1 — Emax (Oprk1; receptor internalization, agonist, on-cell western; mouse receptor; reference: control): 44.8 ± 1.2%
carbachol — Hill coefficient (Muscarinic acetylcholine receptor; binding, [3H]QNB competition; Xenopus laevis heart homogenate): 0.51
ethoxymethyl salvinorin B — log intrinsic relative activity (OPRK1; receptor internalization, agonist; concentration not given; reference: dynorphin A): 0.68 ± 0.16
CCN(CC)Cc1cccc(N)c1 — inhibition (ACHE; enzyme activity, inhibitor; 1000 µM): 0%
U-69593 — ERK1/2 phosphorylation (OPRK1; agonist, in-cell western; CHO expressing human KOR; 10 µM; reference: reference agonist): 100%
CN(C(=O)Cc1ccc(Cl)c(Cl)c1)[C@H](CN1CCCC1)c1ccccc1 — log intrinsic relative activity (Oprk1; receptor internalization, agonist; concentration not given; reference: dynorphin A): 1.76 ± 0.21
pralidoxime iodide — reactivation rate constant (kr) (Acetylcholinesterase, DFP-inhibited (ACHE, Homo sapiens, UniProt P22303); reactivator; pH 8.0, 25 °C): 0.183 M⁻¹ s⁻¹
Cc1cccc2c1ccc1cc(C(C)C)ccc12 — fold change (Aryl hydrocarbon receptor (AHR, Homo sapiens, UniProt P35869); reporter gene, agonist; Huh7; 30 µM, together with: 0.125 mg/mL active microsomes; reference: MeBIO 0.1 µM): 10.1 and 11.2 and 10.2 and 10.8
CCN1CCN(Cc2ccc(NC(=O)c3ccc(C)c(/C=C/c4cnc5[nH]ccc5c4OC)c3)cc2C(F)(F)F)CC1 — log2 fold change (Serine/threonine-protein kinase ICK (CILK1, Homo sapiens, UniProt Q9UPZ9); inhibitor, cell-based kinome screen; 5 µM; reference: vehicle): -0.045 log2
CC(C)C[C@@H]1NC(=O)[C@H](CCC(=O)O)NC(=O)[C@@H]2CCCN2C(=O)[C@H](Cc2c[nH]cn2)NC(=O)[C@H](CC(=O)O)NC(=O)[C@H](CC(C)C)NC(=O)[C@H](Cc2c[nH]cn2)NC(=O)[C@@H]2CSSC[C@H](NC(=O)CN)C(=O)N[C@@H](CSSC[C@@H](C(N)=O)NC1=O)C(=O)N[C@@H](CO)C(=O)N[C@@H](Cc1c[nH]cn1)C(=O)N1CCC[C@H]1C(=O)N[C@@H](C)C(=O)N2 — selectivity ratio (Neuronal acetylcholine receptor; alpha3/beta2; reference: IC50 α6/α3β2β3 over α3β2): 12
CC(C)[C@H]1CC[C@@H](N2CCC(n3c(CO)cc4ccccc43)CC2)CC1 — inhibition (D(4) dopamine receptor (DRD4, Homo sapiens, UniProt P21917); radioligand binding; 10 µM): 86%
CO[C@]12CC[C@@]3(C[C@@H]1[C@](C)(O)c1cccc(Cl)c1)[C@H]1Cc4ccc(O)c5c4[C@@]3(CCN1CC1CC1)[C@H]2O5 — stimulation (Oprm1; G protein activation, agonist; 10 µM; reference: DAMGO): 14 ± 4%
O=C(O)c1ccccc1[As](=O)(O)O — maximal inhibition (Sphingomyelin phosphodiesterase (SMPD1, Homo sapiens, UniProt P17405); enzyme activity; pH 6.5, together with: sphingomyelin substrate): 104%
CO[C@]12CC[C@@]3(C[C@@H]1[C@@](C)(O)C(C)(C)C)[C@H]1Cc4c(Cl)cc(O)c5c4[C@@]3(CCN1CC1CC1)[C@H]2O5 — antagonist activity (OPRL1; antagonist; CHO; concentration not given): inhibited
CO[C@]12CC[C@@]3(C[C@@H]1[C@](C)(O)c1cc(C)cc(C)c1)[C@H]1Cc4ccc(O)c5c4[C@@]3(CCN1CC1CC1)[C@H]2O5 — stimulation (OPRK1; G-protein activation, agonist; 10 µM; reference: U-69593): 50 ± 6%
CCCCOP(=O)(OCCCC)OCCCC — threshold activation concentration (Peroxisome proliferator-activated receptor gamma (PPARG, Homo sapiens, UniProt P37231); reporter gene, agonist): 0.4 µM
CN(C(=O)Cc1ccc(Cl)c(Cl)c1)C1CCC2(CCCO2)CC1N1CCCC1 (centres unmarked) — bias factor (OPRK1; agonist; human receptor; reference: larger over smaller RAi, vs dynorphin A): 1.8
CC(C)C[C@@H]1NC(=O)[C@H](CCC(=O)O)NC(=O)[C@@H]2CCCN2C(=O)[C@H](Cc2c[nH]cn2)NC(=O)[C@H](CC(N)=O)NC(=O)[C@H](CC(C)C)NC(=O)[C@H](Cc2c[nH]cn2)NC(=O)[C@@H]2CSSC[C@H](NC(=O)CN)C(=O)N[C@@H](CSSC[C@@H](C(N)=O)NC1=O)C(=O)N[C@@H](CO)C(=O)N[C@@H](Cc1c[nH]cn1)C(=O)N1CCC[C@H]1C(=O)N[C@@H](C)C(=O)N2 — selectivity ratio (Neuronal acetylcholine receptor; alpha3/beta2; reference: IC50 α6/α3β2β3 over α3β2): 3
CN(C)Cc1cc(N)ccc1O — inhibition (ACHE; enzyme activity, inhibitor; 1000 µM): 95%
methoxymethyl salvinorin B — Emax (OPRK1; agonist; reference: U-50488 10 µM): 108 ± 3.3%
O=c1[nH]c(CC2CCCCC2)cc(O)c1-c1ccccc1 — binding entropy (inhA; isothermal titration calorimetry; concentration not given, together with: NADH): -0.0098 kcal/mol
CO[C@]12CC[C@@]3(C[C@@H]1[C@](C)(O)c1ccsc1)[C@H]1Cc4ccc(O)c5c4[C@@]3(CCN1CC1CC1)[C@H]2O5 — stimulation (Oprm1; G protein activation, agonist; 10 µM; reference: DAMGO): 3 ± 2%
O=C(O)C1=CS[C@@H]2/C(=C\c3cc4n(n3)CSC4)C(=O)N12 — KI (blaC (Mycobacterium tuberculosis, UniProt P9WKD3); inactivation): 0.8 µM
CCOc1ccc(Cc2nc3cc(C(=O)N(CC)CC)ccc3n2CCC(C)C)cc1 — displacement (Cannabinoid receptor 1 (CNR1, Homo sapiens, UniProt P21554); binding; CHO membranes; 10 µM, together with: [3H]CP-55940): 24%
CC(=O)OCC[N+](C)(C)C — Hill coefficient (Muscarinic acetylcholine receptor; binding, [3H]QNB competition; Xenopus laevis heart homogenate): 0.49
C=CCN1CC[C@@]23c4c5ccc(O)c4C[C@@H]2[C@H](O)C=C[C@@H]3[C@@H]1C5 — antagonist activity (Mu-type opioid receptor (OPRM1, Homo sapiens, UniProt P35372); DAMGO response, β-arrestin2 recruitment; concentration not given, together with: DAMGO; reference: naloxone): ~55%
C[C@@H]1NC(=O)[C@H](CCCNC(=N)N)NC(=O)[C@H](CCCNC(=N)N)NC(=O)[C@H](Cc2c[nH]cn2)NC(=O)[C@H](CO)NC(=O)[C@@H]2CSSC[C@H](NC(=O)CN)C(=O)N[C@@H](CSSC[C@@H](C(N)=O)NC(=O)[C@H](CO)NC(=O)[C@H](CCCNC(=N)N)NC1=O)C(=O)N[C@@H](CO)C(=O)N[C@@H](Cc1c[nH]cn1)C(=O)N1CCC[C@H]1C(=O)N[C@@H](C)C(=O)N2 — remaining response (Neuronal acetylcholine receptor; alpha9/alpha10 (Homo sapiens, UniProt Q9GZZ6+Q9UGM1); ion current, antagonist; Xenopus oocytes; 10 µM, 5 min, together with: acetylcholine; reference: control): 6 ± 6%
Cc1csc(CCCNCc2cc(=O)c3cc(F)ccc3[nH]2)n1 — binding (D(3) dopamine receptor (DRD3, Homo sapiens, UniProt P35462); 10 µM): inactive
CO[C@]12CC[C@@]3(C[C@@H]1[C@](C)(O)c1ccc(C)cc1)[C@H]1Cc4ccc(O)c5c4[C@@]3(CCN1CC1CC1)[C@H]2O5 — stimulation (Oprm1; G protein activation, agonist; 10 µM; reference: DAMGO): 50 ± 2%
CCOc1ccc2c(c1)Oc1cc(OCC)ccc1C21OC(=O)c2ccccc21 — Vmax (cyp6p3 (Anopheles gambiae, UniProt Q8T632); substrate; dual plasmid expression): 14.8 ± 4.89 RFU/s
CCC(=O)SCC[N+](C)(C)C — substrate inhibition constant (Kss) (Cholinesterase (BCHE, Homo sapiens, UniProt P06276); substrate): 1.5 ± 0.4 mM
CC1(C)CCC(Cc2cc(O)c(-c3ccccc3)c(=O)[nH]2)CC1 — melting temperature (inhA; thermal shift; together with: NADH ternary complex): 56.3 °C
CC(C)C[C@@H]1NC(=O)[C@H](CCC(=O)O)NC(=O)[C@@H]2CCCN2C(=O)[C@H](Cc2c[nH]cn2)NC(=O)[C@H](CCCCC(=O)O)NC(=O)[C@H](CC(C)C)NC(=O)[C@H](Cc2c[nH]cn2)NC(=O)[C@@H]2CSSC[C@H](NC(=O)CN)C(=O)N[C@@H](CSSC[C@@H](C(N)=O)NC1=O)C(=O)N[C@@H](CO)C(=O)N[C@@H](Cc1c[nH]cn1)C(=O)N1CCC[C@H]1C(=O)N[C@@H](C)C(=O)N2 — selectivity ratio (Neuronal acetylcholine receptor; alpha4/beta2 (Rattus norvegicus, UniProt P09483+P12390); reference: IC50 α4β2 over α3β2): 742
CCCC(=O)SCC[N+](C)(C)C — Km (Butyrylcholinesterase (Sus scrofa, UniProt A0A4X1VEU5); substrate; pH 8.0, 22 °C): 230 ± 40 µM
CO[C@]12CC[C@@]3(C[C@@H]1[C@](C)(O)c1cccs1)[C@H]1Cc4ccc(O)c5c4[C@@]3(CCN1CC1CC1)[C@H]2O5 — stimulation (Oprm1; G protein activation, agonist; 10 µM; reference: DAMGO): 0 ± 1%
CC#C/C(=N\OC[C@H]1COCCN1)c1ccc2ncnc(Nc3ccc(OCc4cccc(F)c4)c(Cl)c3)c2c1 — inhibition (Ephrin type-A receptor 4 (EPHA4, Homo sapiens, UniProt P54764); kinase activity; 10 µM): 16.9%
nociceptin — maximal stimulation (OPRL1; agonist; cell membranes; reference: standard agonist): 100%

For quick reference, copied from above:
CC(C)C[C@@H]1NC(=O)[C@H](CCC(=O)O)NC(=O)[C@@H]2CCCN2C(=O)[C@H](Cc2c[nH]cn2)NC(=O)[C@H](CC(N)=O)NC(=O)[C@H](CC(C)C)NC(=O)[C@H](Cc2c[nH]cn2)NC(=O)[C@@H]2CSSC[C@H](NC(=O)CN)C(=O)N[C@@H](CSSC[C@@H](C(N)=O)NC1=O)C(=O)N[C@@H](CO)C(=O)N[C@@H](Cc1c[nH]cn1)C(=O)N1CCC[C@H]1C(=O)N[C@@H](C)C(=O)N2 — selectivity ratio (Neuronal acetylcholine receptor; alpha3/beta2; reference: IC50 α6/α3β2β3 over α3β2): 3
CN(C)Cc1cc(N)ccc1O — inhibition (ACHE; enzyme activity, inhibitor; 1000 µM): 95%
methoxymethyl salvinorin B — Emax (OPRK1; agonist; reference: U-50488 10 µM): 108 ± 3.3%
O=c1[nH]c(CC2CCCCC2)cc(O)c1-c1ccccc1 — binding entropy (inhA; isothermal titration calorimetry; concentration not given, together with: NADH): -0.0098 kcal/mol
CO[C@]12CC[C@@]3(C[C@@H]1[C@](C)(O)c1ccsc1)[C@H]1Cc4ccc(O)c5c4[C@@]3(CCN1CC1CC1)[C@H]2O5 — stimulation (Oprm1; G protein activation, agonist; 10 µM; reference: DAMGO): 3 ± 2%
